Published values gathered from unrelated publications.
Compare with care: the assays were run in different laboratories. “And” joins repeats or separate records; there may be more than shown. ± gives the spread as reported.
Chain of UniProt P05771 (whole entry, looked up): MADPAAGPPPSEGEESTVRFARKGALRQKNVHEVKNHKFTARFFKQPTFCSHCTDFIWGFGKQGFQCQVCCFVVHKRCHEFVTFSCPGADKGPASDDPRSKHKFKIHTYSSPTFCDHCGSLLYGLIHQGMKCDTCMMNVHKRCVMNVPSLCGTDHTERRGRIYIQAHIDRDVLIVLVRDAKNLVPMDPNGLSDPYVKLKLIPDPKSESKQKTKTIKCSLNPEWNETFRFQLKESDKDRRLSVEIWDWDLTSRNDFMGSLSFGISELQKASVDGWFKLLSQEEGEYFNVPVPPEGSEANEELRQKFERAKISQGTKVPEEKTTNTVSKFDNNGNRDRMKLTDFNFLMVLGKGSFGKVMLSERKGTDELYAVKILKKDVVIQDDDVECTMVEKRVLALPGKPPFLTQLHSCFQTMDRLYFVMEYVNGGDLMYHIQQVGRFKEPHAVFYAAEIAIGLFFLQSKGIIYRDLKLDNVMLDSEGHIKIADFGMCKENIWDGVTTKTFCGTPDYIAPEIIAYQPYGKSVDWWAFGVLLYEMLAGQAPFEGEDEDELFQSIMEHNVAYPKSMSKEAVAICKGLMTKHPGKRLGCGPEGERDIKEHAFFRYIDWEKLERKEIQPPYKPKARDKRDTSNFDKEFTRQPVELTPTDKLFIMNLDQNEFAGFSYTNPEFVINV

Structure (SMILES)	tested on	test	system	setting	scale	measurement	result
CC(C)OCCOCc1ccc(OCC(O)CN(N=O)C(C)C)cc1 (stereo not drawn)	Salmonella typhimurium	Ames test	TA98	5 µg/plate, 30 % hamster S9	relative to: solvent control	revertant fold increase	1 fold
COC1CN([C@H]2CC[C@H]([C@@]3(C)Oc4c(Cl)cc(C(=O)NCc5c(SC)cc(C)[nH]c5=O)c(C)c4O3)CC2)C1		RNA-seq, refers to: TRIM36	human, whole blood	dose not given, 24 h	relative to: pretreatment baseline	log2 fold change	1.58
CCN(CC)CC(=O)Nc1cccc(-n2cc(-c3ccc4ccc(-c5cn(-c6cccc(NC(=O)CN(CC)CC)c6)nn5)cc4c3)nn2)c1	RCC4	PCR angiogenesis array, refers to: MMP14		5 x IC50, 4 h, normoxia	relative to: untreated	fold regulation	-1.39
Nc1ncc(-c2cc(-c3cnn(CC(F)(F)F)c3)ncc2F)nc1C(=O)NC1CNCC(F)C1 (stereo not drawn)	INSR	KINOMEscan		1 µM	relative to: DMSO control	remaining binding	87%
O=C1C2CC3CC1CC(C(=O)N1CCN(c4ccc([N+](=O)[O-])c5ncccc45)CC1)(C3)C2	Escherichia coli	Ames test	WP2 uvrA pKM101	0.13 µg/well, without S9	relative to: vehicle	revertant fold increase	0.7
CN1CCCNC(=O)c2cccc(c2)C(=O)NCCCN(C)CCCNc2cccc3c2C(=O)c2cccc(c2C3=O)NCCC1	SAS	RNA-Seq, refers to: SPTLC2 mRNA		1 µM, 6 h	relative to: untreated cells	log2 fold change	-0.98
CNS(=O)(=O)Nc1nccc(Cc2c(C)c3ccc(Oc4ncccc4F)cc3oc2=O)c1F	U-2 OS	cell viability, inhibitor, CellTiter-Glo		7 days		IC50	> 1000 nM
C=CC(=O)Nc1cccc(Cn2ncc3cnc(Nc4cnn(CCOC)c4)nc32)c1	FER human	binding, KINOMEscan		100 nM	lower = stronger binding	percent of control	100%
C=C1CC[C@H](OCCCNC(=O)CCOCCOCCOCCOCCOCCOCCOCCOCCOCCOCCOCCOCCOCCOCCOCCOCCOCCOCCOCCOCCOCCOCCOCCOCCOCCOCCOCCOCCOCCOCCOCCOCCOCCOCCOCCOCCNC(=O)CCN2C(=O)CC(SC[C@H](NC(=O)[C@H](Cc3ccccc3)NC(=O)[C@H](CC(N)=O)NC(=O)[C@H](Cc3c[nH]cn3)NC(=O)[C@@H](NC(=O)[C@H](CC(=O)O)NC(=O)[C@H](CCC(N)=O)NC(=O)[C@H](CC(C)C)NC(=O)[C@H](CCCCN)NC(=O)[C@H](CCCCN)NC(=O)[C@H](CCCNC(=N)N)NC(=O)[C@H](CC(C)C)NC(=O)[C@H](Cc3c[nH]c4ccccc34)NC(=O)[C@H](CCC(=O)O)NC(=O)[C@@H](NC(=O)[C@H](CCCNC(=N)N)NC(=O)[C@H](CCC(=O)O)NC(=O)[C@H](CCSC)NC(=O)[C@H](CO)NC(=O)[C@H](CC(N)=O)NC(=O)[C@H](CC(C)C)NC(=O)[C@H](Cc3c[nH]cn3)NC(=O)[C@H](CCCCN)NC(=O)CNC(=O)[C@H](CC(C)C)NC(=O)[C@H](CC(N)=O)NC(=O)[C@H](Cc3c[nH]cn3)NC(=O)[C@H](CCSC)NC(=O)[C@H](CC(C)C)NC(=O)[C@H](CCC(N)=O)NC(=O)[C@@H](NC(=O)[C@H](CCC(=O)O)NC(=O)[C@H](CO)NC(=O)[C@@H](NC(=O)[C@@H](N)CO)C(C)C)[C@@H](C)CC)C(C)C)C(C)C)C(=O)O)C2=O)C/C1=C/C=C1\CCC[C@]2(C)[C@@H]([C@H](C)CCCC(C)(C)O)CC[C@@H]12 (stereo partly drawn)			male cynomolgus monkey, plasma	subcutaneous, 0.007 mg/kg, single dose		Cmax	10.8 ng/mL
C=C(NC(=O)c1csc(-c2nc3c(cc2O)-c2nc(cs2)C(=O)NC(C(C)O)C(=O)NC(=C(C)OC)c2nc(cs2)C(=O)NC2c4nc(cs4)C(=O)NC(COC(=O)c4c5c6c(cccc6n4O)COC(=O)C(OC4CC(C)(O)C(N(C)C)C(C)O4)C2OC5)c2nc-3cs2)n1)C(N)=O (stereo not drawn)	Streptococcus pneumoniae		-25, immunocompromised mice, lung infection, lung	4 mg/kg/day once daily, 24 h post-dose		bacterial load	6.85 log CFU/g
CC(C)C[C@H](NC(=O)[C@@H](CCCCNC(=O)CCCCCCCCCCNC(=O)CN1CCN(CC(=O)O)CCN(CC(=O)O)CCN(CC(=O)O)CC1)NC(=O)[C@H](Cc1ccc(O)cc1)NC(=O)[C@H](CO)NC(=O)[C@H](Cc1c[nH]c2ccccc12)NC(=O)[C@H](Cc1cnc[nH]1)NC(=O)[C@@H]1CCC(=O)N1)C(=O)N[C@@H](CCCN=C(N)N)C(=O)N1CCC[C@H]1C(=O)NCC(N)=O [indium-111 labelled]			athymic nude mouse, female, intestines	intravenous, 0.037 MBq, 2 h		tissue uptake	3.46 ± 4.2 %ID
c1ccc(-c2n[nH]cc2-c2ccnc3ccccc23)nc1	IRE1 (Candida albicans)	kinase binding, MIB/MS competition	Candida albicans lysate	1 µM	relative to: DMSO	log2 fold change	0
Cc1ncsc1-c1ccc(C(C)NC(=O)C2CC(O)CN2C(=O)C(NC(=O)CCCCCCCCCCN2CCCC(Nc3ncc(Cl)c(Nc4ccccc4S(=O)(=O)C(C)C)n3)C2)C(C)(C)C)cc1 (stereo not drawn)	22Rv1	RNA-seq, refers to: SLC29A3 mRNA		concentration not given	relative to: DMSO	log2 fold change	-1.41
O=C(Nc1cnccc1-c1ccc([18F])cc1)c1ccnc(NC(=O)C2CC2)c1			FVB/NJ mice (both sexes), lung	intravenous, dose not given, 120 min, together with: tariquidar 15 mg/kg i.v. pre-dose		SUV	0.41
COc1ccccc1-c1ccncc1C(=O)Nc1nnc(OCc2ccc(Cl)cc2)s1	PEO1 BRCA2-mutant ovarian cancer			1.00 µM, together with: olaparib 0.5 µM		colony survival	0%
COc1cc2c(NC3CCN(C(C)C)CC3)cc(N3CCOCC3)nc2cc1OCCCN1CCCC1		TMT quantitative proteomics, refers to: phosphoglycerate mutase 1	5xFAD mice, hippocampus	dose not given		normalised protein abundance	-0.0036 and 0.0105 and -0.0434 and 0.00402 and -0.0625 and -0.0253 and -0.111 and -0.0515
C=CC(=O)N1[C@@H](c2ccc3c(c2)OCO3)c2[nH]c3ccccc3c2C[C@H]1C(=O)N1CCN(C)CC1	human cyclin E1 N112C-3xFLAG:CDK2	co-IP with TMT proteomics, refers to: CDK2		concentration not given, P24941	relative to: wild type DMSO	relative co-enrichment	105%
Cc1nn(-c2cccc(N)c2)c(=O)c2cnc(Nc3ccc(N4CCNCC4)cc3)nc12	PRKCB (Homo sapiens, UniProt P05771)	kinase activity, inhibitor, SelectScreen kinase profiling				IC50	2730 nM

For quick reference, copied from above:
Structure (SMILES)	tested on	test	system	setting	scale	measurement	result
c1ccc(-c2n[nH]cc2-c2ccnc3ccccc23)nc1	IRE1 (Candida albicans)	kinase binding, MIB/MS competition	Candida albicans lysate	1 µM	relative to: DMSO	log2 fold change	0
COc1ccccc1-c1ccncc1C(=O)Nc1nnc(OCc2ccc(Cl)cc2)s1	PEO1 BRCA2-mutant ovarian cancer			1.00 µM, together with: olaparib 0.5 µM		colony survival	0%
